Results of several laboratories.
Each line is one published result; not all experiments were run side by side. Numbers after ± are the reported error.
Cell line: Vero

COc1ccc(-c2nc(NS(=O)(=O)c3ccccc3)nc(N)c2-c2nc3ccccc3s2)cc1
maximum non-toxic concentration (cytotoxicity; 72 h): 100 µg/mL

C#CCC(Cc1cnc2nc(N)nc(N)c2n1)c1ccc(C(=O)N[C@@H](CCC(=O)O)C(=O)O)cc1 (stereo partly shown)
CC50 (Alamar Blue; 96 h): 0.5 µM

Nc1nc(NS(=O)(=O)c2ccccc2)nc(-c2ccccc2)c1-c1nc2ccccc2s1
maximum non-toxic concentration (cytotoxicity; 72 h): 90 µg/mL

COc1ccc2c(Cc3ccccc3F)c3n(c(=O)c2c1OC)CCc1cc2c(cc1-3)OCO2
IC50 (cytotoxicity, CCK-8; 24 h): 84.2 µM

Cc1ccc(C(=O)CNc2nc(NS(=O)(=O)c3ccccc3)ncc2-c2nc3ccccc3s2)cc1
maximum non-toxic concentration (cytotoxicity; 72 h): 100 µg/mL

Cc1ccc(S(=O)(=O)Nn2c(N)c(C#N)cc(C#N)c2=O)cc1
maximum non-toxic concentration (72 h): 90 µg/mL

Cc1ccc(S(=O)(=O)Nc2nc(N)c(-c3nc4ccccc4s3)c(-c3ccccc3)n2)cc1
maximum non-toxic concentration (cytotoxicity; 72 h): 90 µg/mL

Cl.Oc1cccc2c1[nH]c1c(C3=CC4(O)CC/C=C\CCCCN5CCC3C3(CC6/C=C\CCCCN6C43)C5)nccc12 (single isomer, unassigned; (+))
IC50 (cytotoxicity, neutral red; 48 h): 0.662 ± 0.137 µg/mL

CC(=O)CNc1nc(NS(=O)(=O)c2ccccc2)ncc1-c1nc2ccccc2s1
maximum non-toxic concentration (cytotoxicity; 72 h): 80 µg/mL

Nc1n[nH]c2c(-c3nc4ccccc4s3)c(N)n(NS(=O)(=O)c3ccccc3)c(=O)c12
maximum non-toxic concentration (72 h): 90 µg/mL

COn1cc(-c2ccccc2)c(O)c([C@@H]2O[C@H]([C@H](C)CCO)[C@@H](C)C[C@H]2C)c1=O
IC50 (cytotoxicity, neutral red; 48 h): > 4.76 µg/mL

O=C(Nc1cccc2c(=O)cc(-c3nnn[nH]3)oc12)c1ccc(OCCCCc2ccccc2)cc1
CC50 (Alamar Blue; 96 h): 66.8 µM

CCSC(SCC)=C(C#N)c1nc2ccccc2s1
maximum non-toxic concentration (72 h): 110 µg/mL

O=C(Cn1ccnc1[N+](=O)[O-])NCc1ccccc1
CC50 (Alamar Blue; 96 h): > 200 µM

COc1cccc2c1C(=O)c1c(O)c3c(c(O)c1C2=O)C[C@@](O)(C(=O)CO)C[C@@H]3O[C@H]1C[C@H](N)[C@H](O)[C@H](C)O1
IC50 (cytotoxicity, neutral red; 48 h): > 5 µg/mL

CC(C)(C)[C@@H]1NC(=O)O[C@@H]2CCC[C@H]2OC/C=C/C(F)(F)c2nc3ccccc3nc2O[C@@H]2C[C@@H](C(=O)N[C@]3(C(=O)NS(=O)(=O)C4(C)CC4)C[C@H]3C(F)F)N(C2)C1=O
CC50 (Alamar Blue; 96 h): 38.9 µM

CSc1c(-c2nc3ccccc3s2)c(N)n(NS(=O)(=O)c2ccccc2)c(=O)c1C#N
maximum non-toxic concentration (72 h): 100 µg/mL

CC1=C(/C=C/C(C)=C/C=C/C(C)=C/C=C/C=C(C)/C=C/C=C(C)/C=C/C2=C(C)CCCC2(C)C)C(C)(C)CCC1
CC50 (Alamar Blue; 96 h): 139 µM

CC[C@@H](C)[C@H]1O[C@@H](c2c(O)c(-c3ccccc3)cn(O)c2=O)[C@H](C)C[C@@H]1C
cytotoxicity (neutral red; concentration not given): toxic

Nc1nc(NS(=O)(=O)c2ccccc2)nc(-c2ccc(F)cc2)c1-c1nc2ccccc2s1
maximum non-toxic concentration (cytotoxicity; 72 h): 100 µg/mL

CO[C@@]1(NC(=O)C2SC(=C(C(N)=O)C(=O)O)S2)C(=O)N2C(C(=O)O)=C(CSc3nnnn3C)CS[C@@H]21 (stereo partly shown)
CC50 (Alamar Blue; 96 h): > 400 µM

CSc1nc(NS(=O)(=O)c2ccc(C)cc2)nc(N)c1-c1nc2ccccc2s1
maximum non-toxic concentration (cytotoxicity; 72 h): 100 µg/mL

CCSc1c(-c2nc3ccccc3s2)c(N)n(NS(=O)(=O)c2ccc(C)cc2)c(=O)c1C#N
maximum non-toxic concentration (72 h): 120 µg/mL

Cc1ccc(-c2nc(N)nc(N)c2-c2nc3ccccc3s2)cc1
maximum non-toxic concentration (cytotoxicity; 72 h): 110 µg/mL

N#Cc1cc(C#N)c(=O)n(NS(=O)(=O)c2ccccc2)c1N
maximum non-toxic concentration (72 h): 100 µg/mL

Excerpt of the above:
N#Cc1cc(C#N)c(=O)n(NS(=O)(=O)c2ccccc2)c1N
maximum non-toxic concentration (72 h): 100 µg/mL

CCSC(SCC)=C(C#N)c1nc2ccccc2s1
maximum non-toxic concentration (72 h): 110 µg/mL
